{"data": "Assay results pooled from the literature", "note": "Numbered parts are unrelated; each lists some results of a single study."}
{"data": "Set 1", "target": "Histone acetyltransferase KAT6A, both winged helices, GST fusion (KAT6A, Homo sapiens, UniProt Q92794, residues 1-181)", "technique": "protein binding microarray", "molecule type": "double-stranded DNA, one strand shown", "medium": "in vitro", "concentration": "not given", "setting": "8-mer, flanks averaged, mean of 2 arrays, mostly near background", "relative to": "not given", "direction": "higher = stronger binding", "Construct (chain)": "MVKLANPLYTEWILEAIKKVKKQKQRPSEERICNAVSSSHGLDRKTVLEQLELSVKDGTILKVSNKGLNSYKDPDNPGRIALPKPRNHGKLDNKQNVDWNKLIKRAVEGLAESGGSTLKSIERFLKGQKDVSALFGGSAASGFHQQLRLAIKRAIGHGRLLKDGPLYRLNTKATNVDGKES"}
{"Sequence": "GCGAGCCC", "E-score": 0.142}
{"Sequence": "ATACACGG", "E-score": 0.177}
{"Sequence": "CATCCTAG", "E-score": -0.123}
{"Sequence": "GATCTGCA", "E-score": -0.107}
{"Sequence": "CGAGTGAG", "E-score": -0.0554}
{"Sequence": "CGCCCTAC", "E-score": 0.0636}
{"Sequence": "CTTGCTAC", "E-score": -0.138}
{"Sequence": "CGTCAACA", "E-score": 0.165}
{"Sequence": "AGAAAATG", "E-score": -0.145}
{"Sequence": "CAGCTAGA", "E-score": -0.208}
{"Sequence": "AGAATCAT", "E-score": -0.267}
{"Sequence": "AATCTCAA", "E-score": -0.135}
{"Sequence": "CAGCCCTG", "E-score": -0.113}
{"Sequence": "AGGTCGAC", "E-score": -0.136}
{"Sequence": "CTGTCACC", "E-score": -0.127}
{"Sequence": "GCCAACCA", "E-score": 0.0356}
{"Sequence": "ACATATTA", "E-score": -0.0211}
{"Sequence": "CATCGCCG", "E-score": 0.297}
{"Sequence": "AGCGTGGG", "E-score": -0.0161}
{"data": "Set 2", "Substance": "PhoQ, residues 284 288 289 292 302 303 NSMLDC", "technique": "Sort-seq", "item": "YFP reporter", "medium": "E. coli", "setting": "PhoQ-PhoP variant library", "added": "10 µM Mg2+", "relative to": "high Mg2+ state", "direction": "higher = stronger signaling"}
{"target": "PhoP, residues 12 14 15 18 19 VGHWL (Escherichia coli, UniProt P23836)", "fold induction": 2.72}
{"target": "PhoP, residues 12 14 15 18 19 NFFVT (Escherichia coli, UniProt P23836)", "fold induction": 10.6}
{"target": "PhoP, residues 12 14 15 18 19 LHHYF (Escherichia coli, UniProt P23836)", "fold induction": 36.3}
{"target": "PhoP, residues 12 14 15 18 19 TPWTL (Escherichia coli, UniProt P23836)", "fold induction": 4.26}
{"data": "Set 3", "target": "Interferon regulatory factor 5, full length, phosphomimetic (IRF5, Homo sapiens, UniProt Q13568-2, residues 1-514, S451D/S453D/S456D/S462D)", "technique": "protein-binding microarray", "molecule type": "double-stranded DNA, one strand shown", "medium": "in vitro", "concentration": "940 nM top", "setting": "60-bp whole probe", "added": "salmon DNA 0.4 mg/ml", "relative to": "random background probes", "direction": "higher = stronger binding", "all sequences stand within": "GCCTAGCAC … GTCTTGATTCGCTTGACGCTGCTG"}
{"Sequence": "GACGGTCTCGGTTCCGGGACGTGCTAG", "fitted relative affinity [z-score]": 4.02}
{"Sequence": "GACGGACTGGACTTGCGGGACGTGCTA", "fitted relative affinity [z-score]": -0.772}
{"Sequence": "TCCTCTTTCTCTGCTACCCTTGTGCTA", "fitted relative affinity [z-score]": 2.34}
{"Sequence": "TCACACTTGTGTTTGGGACTGTGCTAG", "fitted relative affinity [z-score]": -0.0916}
{"Sequence": "TTAGGTTTCGGACTGGGTCAGTGCTAG", "fitted relative affinity [z-score]": 6.71}
{"Sequence": "CCTAGCCTCCCAGCCCAGCAGTGCTAG", "fitted relative affinity [z-score]": 0.325}
{"Sequence": "TCTGGGCCTCCATCATCTGTGTGCTAG", "fitted relative affinity [z-score]": -0.382}
{"Sequence": "TTTTACATTTTAAGAAATGTGTGCTAG", "fitted relative affinity [z-score]": -0.0441}
{"Sequence": "TTAGGTATCCTACTGCTCTAGTGCTAG", "fitted relative affinity [z-score]": 0.0279}
{"Sequence": "TCAACATTGTGCAATCTTACTGTGCTA", "fitted relative affinity [z-score]": -0.0891}
{"Sequence": "TTAGCTCTCCTACTGCTTTAGTGCTAG", "fitted relative affinity [z-score]": 0.325}
{"Sequence": "TTTTCTCTCCCATTCTGAATGTGCTAG", "fitted relative affinity [z-score]": 1.86}
{"Sequence": "ATAGGTTTCCTTTTCCTTTAGTGCTAG", "fitted relative affinity [z-score]": 1.98}
{"Sequence": "TTAGATCTGAGTTTCGATTAGTGCTAG", "fitted relative affinity [z-score]": 7.44}
{"Sequence": "TTAGATATGAGACTGGATTAGTGCTAG", "fitted relative affinity [z-score]": -0.0396}
{"Sequence": "GACGGTACCGACTTTCGGGACGTGCTA", "fitted relative affinity [z-score]": 0.581}
{"Sequence": "CCAGACCCTGATCCATGCATGTGCTAG", "fitted relative affinity [z-score]": -0.414}
{"Sequence": "GACGGGTTCGACTTTCGGGACGTGCTA", "fitted relative affinity [z-score]": 0.941}
{"Sequence": "GACGGTTTCCTTTACCTGACGTGCTAG", "fitted relative affinity [z-score]": 1.61}
{"data": "Set 4", "target": "RNA binding protein fox-1 homolog 2, RRM domain, GST-SBP tag (RBFOX2, Homo sapiens, UniProt O43251-10, residues 100-194)", "technique": "RNA Bind-n-Seq", "molecule type": "RNA", "medium": "in vitro", "concentration": "365 nM", "setting": "natural RNA segment, single round, ends assumed", "relative to": "no-protein control", "direction": "higher = stronger binding", "all sequences stand within": "GGGAGUUCUACAGUCCGACGAUC … UGGAAUUCUCGGGUGCCAA", "Residues (chain)": "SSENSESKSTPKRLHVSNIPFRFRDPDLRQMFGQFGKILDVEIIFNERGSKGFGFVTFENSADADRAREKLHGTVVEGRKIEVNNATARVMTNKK"}
{"Sequence": "GGUACCAAUCAUUGAUUUUUUUUUUUUUUGUAAACUAAAAUGUUUAAAAUAAAAUAGCAUUUACAGUUUUACAGACUGGUGUAACCUAAAUGAAUUGUUACCUGUGUUAC", "RBNS enrichment (R)": 0.782}
{"Sequence": "UGGGCAGUGACACCUCUAGUGCCCCCAGCAGCCAUGUAGGCAUCCACUCCACCUGCAAAAGACGAUGGCUCUGUUGUUCUUGGCUUCCUGGUGUGCUUUGAAGGCAGAUG", "RBNS enrichment (R)": 0.612}
{"Sequence": "CUCAGUCACAUGAAGUGUGACACUGAACAGGUAGAAAGCACUGAAAAUCGUGUUCCAAGAGCACUUUGUAACUCACUGAGGGGGAGGGGAAGCACCUUUUGGGUUUGCGA", "RBNS enrichment (R)": 0.657}
{"Sequence": "AACUUGAUGCUCUACCUGCCACCAACCACCAGGACUGAAGGAAGGAAACAGUACUGAGGGCAAAGUUUACAGAUGUUUUUGAUUCUGGCAUUUUGUCCAGAACAGCUUGU", "RBNS enrichment (R)": 0.809}
{"Sequence": "UCUCCAGAAUAAACGUCCCAGCGUUGCCCUGACCUGGCUGGAGGGCGCAUUGCUGUCUGUGCCUGUGUUGUGCACAGCCACAGUUAGUAACUGGGGAAGCUUCUGUACUA", "RBNS enrichment (R)": 0.458}
{"Sequence": "GCCAGUAAUUAACAUGGCUGGGCAGAAGCAGAAGCCGACACUGUGACGACGCUCCGUGUUCUUUAUUAAAAACGAUGUCCCGCACUUAUUACUAGUGGAAUCAACUGGAA", "RBNS enrichment (R)": 0.335}
{"Sequence": "GAUUCGUACCGAAGAACCUUGUGGAAUCCCUUUGCUUAGGCCCAACCUGGUCGAUAGCUCGAGAAAGAAUUUUUUCCAAGGAAAUGUCUCGGAUAUGGGUACUGUAUUUG", "RBNS enrichment (R)": 0.337}
{"Sequence": "UCACCGCUCAUCUGUGCCCGCGGCUACAAGAGGACAGCAAGGGUUUUCUUCAGAGUCUAUUUUUUCAGCAACAAGGACCCCAGUCUUCCUGCUGCUGCCAGGAAGAGCAG", "RBNS enrichment (R)": 1.76}
{"data": "Set 5", "target": "PABPC1L2, full length, GST fusion (mouse, UniProt A0ABA7IW68)", "technique": "RNAcompete", "molecule type": "RNA", "medium": "in vitro", "concentration": "20 nM", "setting": "7-mer, probes averaged, single round", "relative to": "mean of 7-mers", "direction": "higher = stronger binding", "Construct (chain)": "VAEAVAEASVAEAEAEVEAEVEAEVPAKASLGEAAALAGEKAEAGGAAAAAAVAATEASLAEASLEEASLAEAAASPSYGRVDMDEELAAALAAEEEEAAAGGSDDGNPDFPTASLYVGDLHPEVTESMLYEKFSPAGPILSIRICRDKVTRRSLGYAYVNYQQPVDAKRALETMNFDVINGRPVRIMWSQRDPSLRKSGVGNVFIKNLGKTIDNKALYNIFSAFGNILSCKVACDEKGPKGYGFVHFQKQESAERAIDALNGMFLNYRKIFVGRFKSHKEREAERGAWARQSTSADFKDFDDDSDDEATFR"}
{"Sequence": "UUCGAUU", "7-mer Z-score": -0.193}
{"Sequence": "CGGCCCC", "7-mer Z-score": -0.398}
{"Sequence": "UCAGGGA", "7-mer Z-score": 0.289}
{"Sequence": "GAGACCU", "7-mer Z-score": -0.0373}
{"Sequence": "GGGAACC", "7-mer Z-score": 0.0388}
{"Sequence": "UGGCUUC", "7-mer Z-score": -0.315}
{"Sequence": "GGCCAGC", "7-mer Z-score": -0.0699}
{"Sequence": "AGUCCUU", "7-mer Z-score": -0.302}
{"Sequence": "UCCCGCC", "7-mer Z-score": -0.47}
{"Sequence": "AUCACUU", "7-mer Z-score": -0.282}
{"Sequence": "GUCGCGC", "7-mer Z-score": -0.249}
{"Sequence": "GAAGGGU", "7-mer Z-score": 0.129}
{"Sequence": "AUGUGCA", "7-mer Z-score": -0.0518}
{"Sequence": "CUAUAUA", "7-mer Z-score": -0.0953}
{"Sequence": "CGCGUUA", "7-mer Z-score": -0.349}
{"Sequence": "GCCUUGU", "7-mer Z-score": -0.407}
{"Sequence": "AUGUGCC", "7-mer Z-score": -0.0736}
{"Sequence": "CAGUGAC", "7-mer Z-score": -0.0826}
{"Sequence": "CUUUAGU", "7-mer Z-score": -0.0971}
{"note": "For quick reference, copied from above (set 4):"}
{"Sequence": "GGUACCAAUCAUUGAUUUUUUUUUUUUUUGUAAACUAAAAUGUUUAAAAUAAAAUAGCAUUUACAGUUUUACAGACUGGUGUAACCUAAAUGAAUUGUUACCUGUGUUAC", "RBNS enrichment (R)": 0.782}
{"Sequence": "UGGGCAGUGACACCUCUAGUGCCCCCAGCAGCCAUGUAGGCAUCCACUCCACCUGCAAAAGACGAUGGCUCUGUUGUUCUUGGCUUCCUGGUGUGCUUUGAAGGCAGAUG", "RBNS enrichment (R)": 0.612}
{"Sequence": "CUCAGUCACAUGAAGUGUGACACUGAACAGGUAGAAAGCACUGAAAAUCGUGUUCCAAGAGCACUUUGUAACUCACUGAGGGGGAGGGGAAGCACCUUUUGGGUUUGCGA", "RBNS enrichment (R)": 0.657}
{"Sequence": "AACUUGAUGCUCUACCUGCCACCAACCACCAGGACUGAAGGAAGGAAACAGUACUGAGGGCAAAGUUUACAGAUGUUUUUGAUUCUGGCAUUUUGUCCAGAACAGCUUGU", "RBNS enrichment (R)": 0.809}
{"Sequence": "UCUCCAGAAUAAACGUCCCAGCGUUGCCCUGACCUGGCUGGAGGGCGCAUUGCUGUCUGUGCCUGUGUUGUGCACAGCCACAGUUAGUAACUGGGGAAGCUUCUGUACUA", "RBNS enrichment (R)": 0.458}
{"Sequence": "GCCAGUAAUUAACAUGGCUGGGCAGAAGCAGAAGCCGACACUGUGACGACGCUCCGUGUUCUUUAUUAAAAACGAUGUCCCGCACUUAUUACUAGUGGAAUCAACUGGAA", "RBNS enrichment (R)": 0.335}
{"Sequence": "GAUUCGUACCGAAGAACCUUGUGGAAUCCCUUUGCUUAGGCCCAACCUGGUCGAUAGCUCGAGAAAGAAUUUUUUCCAAGGAAAUGUCUCGGAUAUGGGUACUGUAUUUG", "RBNS enrichment (R)": 0.337}
{"Sequence": "UCACCGCUCAUCUGUGCCCGCGGCUACAAGAGGACAGCAAGGGUUUUCUUCAGAGUCUAUUUUUUCAGCAACAAGGACCCCAGUCUUCCUGCUGCUGCCAGGAAGAGCAG", "RBNS enrichment (R)": 1.76}
